Assay results from different studies.
Several values in a cell are separate wells, animals, samples, runs or records. ± gives the spread as reported.
Chain of UniProt P30874 (whole entry, looked up): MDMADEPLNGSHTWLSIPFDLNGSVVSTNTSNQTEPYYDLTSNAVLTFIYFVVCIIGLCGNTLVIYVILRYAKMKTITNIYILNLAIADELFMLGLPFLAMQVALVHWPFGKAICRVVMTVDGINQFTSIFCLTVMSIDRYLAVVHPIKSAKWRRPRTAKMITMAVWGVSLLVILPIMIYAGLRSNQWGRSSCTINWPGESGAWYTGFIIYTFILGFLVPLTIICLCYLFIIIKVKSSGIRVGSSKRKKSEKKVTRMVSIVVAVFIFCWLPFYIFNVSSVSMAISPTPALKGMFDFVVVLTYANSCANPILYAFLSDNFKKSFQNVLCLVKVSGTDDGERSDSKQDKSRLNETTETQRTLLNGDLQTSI
Chain of UniProt Q14145 (whole entry, looked up): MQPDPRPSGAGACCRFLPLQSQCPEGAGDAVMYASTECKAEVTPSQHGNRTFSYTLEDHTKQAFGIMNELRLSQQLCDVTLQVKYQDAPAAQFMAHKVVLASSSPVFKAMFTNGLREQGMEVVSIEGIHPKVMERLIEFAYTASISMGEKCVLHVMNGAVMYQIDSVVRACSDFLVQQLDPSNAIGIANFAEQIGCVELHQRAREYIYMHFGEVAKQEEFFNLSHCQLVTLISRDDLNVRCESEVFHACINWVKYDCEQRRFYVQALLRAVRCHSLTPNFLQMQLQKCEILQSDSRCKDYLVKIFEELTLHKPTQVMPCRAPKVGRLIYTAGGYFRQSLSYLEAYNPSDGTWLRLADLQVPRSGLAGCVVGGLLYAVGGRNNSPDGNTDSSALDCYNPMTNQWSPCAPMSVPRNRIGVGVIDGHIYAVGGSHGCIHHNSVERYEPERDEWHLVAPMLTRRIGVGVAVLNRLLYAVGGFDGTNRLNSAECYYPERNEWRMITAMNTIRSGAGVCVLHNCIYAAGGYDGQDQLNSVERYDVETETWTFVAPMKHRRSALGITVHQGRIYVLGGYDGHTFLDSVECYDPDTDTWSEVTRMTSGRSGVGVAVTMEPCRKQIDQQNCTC
Chain of UniProt Q02750 (whole entry, looked up): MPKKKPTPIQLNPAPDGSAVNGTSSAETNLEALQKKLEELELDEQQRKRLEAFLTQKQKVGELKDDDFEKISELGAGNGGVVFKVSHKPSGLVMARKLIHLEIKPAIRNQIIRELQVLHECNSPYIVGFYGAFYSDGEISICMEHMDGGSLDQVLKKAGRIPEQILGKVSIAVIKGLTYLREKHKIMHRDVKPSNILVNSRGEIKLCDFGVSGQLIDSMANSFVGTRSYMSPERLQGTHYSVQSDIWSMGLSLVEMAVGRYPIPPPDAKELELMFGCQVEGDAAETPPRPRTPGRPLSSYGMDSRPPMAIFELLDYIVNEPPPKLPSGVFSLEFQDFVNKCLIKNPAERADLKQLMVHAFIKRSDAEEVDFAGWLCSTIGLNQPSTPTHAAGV
Chain of UniProt P37023 (whole entry, looked up): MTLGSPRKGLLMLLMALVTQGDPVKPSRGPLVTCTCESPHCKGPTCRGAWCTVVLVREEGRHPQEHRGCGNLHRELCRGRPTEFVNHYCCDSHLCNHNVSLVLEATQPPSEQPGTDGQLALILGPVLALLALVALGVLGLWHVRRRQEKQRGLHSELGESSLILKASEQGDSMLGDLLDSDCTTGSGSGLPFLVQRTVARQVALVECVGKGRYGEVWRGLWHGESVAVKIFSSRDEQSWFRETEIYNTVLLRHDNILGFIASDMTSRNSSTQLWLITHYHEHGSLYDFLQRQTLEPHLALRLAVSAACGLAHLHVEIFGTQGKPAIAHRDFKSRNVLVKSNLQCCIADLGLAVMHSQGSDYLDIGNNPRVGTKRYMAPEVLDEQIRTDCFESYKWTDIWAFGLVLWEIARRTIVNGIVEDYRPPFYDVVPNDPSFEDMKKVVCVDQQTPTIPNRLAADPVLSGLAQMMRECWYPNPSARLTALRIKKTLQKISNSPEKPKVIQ
Chain of UniProt P01024 (whole entry, looked up): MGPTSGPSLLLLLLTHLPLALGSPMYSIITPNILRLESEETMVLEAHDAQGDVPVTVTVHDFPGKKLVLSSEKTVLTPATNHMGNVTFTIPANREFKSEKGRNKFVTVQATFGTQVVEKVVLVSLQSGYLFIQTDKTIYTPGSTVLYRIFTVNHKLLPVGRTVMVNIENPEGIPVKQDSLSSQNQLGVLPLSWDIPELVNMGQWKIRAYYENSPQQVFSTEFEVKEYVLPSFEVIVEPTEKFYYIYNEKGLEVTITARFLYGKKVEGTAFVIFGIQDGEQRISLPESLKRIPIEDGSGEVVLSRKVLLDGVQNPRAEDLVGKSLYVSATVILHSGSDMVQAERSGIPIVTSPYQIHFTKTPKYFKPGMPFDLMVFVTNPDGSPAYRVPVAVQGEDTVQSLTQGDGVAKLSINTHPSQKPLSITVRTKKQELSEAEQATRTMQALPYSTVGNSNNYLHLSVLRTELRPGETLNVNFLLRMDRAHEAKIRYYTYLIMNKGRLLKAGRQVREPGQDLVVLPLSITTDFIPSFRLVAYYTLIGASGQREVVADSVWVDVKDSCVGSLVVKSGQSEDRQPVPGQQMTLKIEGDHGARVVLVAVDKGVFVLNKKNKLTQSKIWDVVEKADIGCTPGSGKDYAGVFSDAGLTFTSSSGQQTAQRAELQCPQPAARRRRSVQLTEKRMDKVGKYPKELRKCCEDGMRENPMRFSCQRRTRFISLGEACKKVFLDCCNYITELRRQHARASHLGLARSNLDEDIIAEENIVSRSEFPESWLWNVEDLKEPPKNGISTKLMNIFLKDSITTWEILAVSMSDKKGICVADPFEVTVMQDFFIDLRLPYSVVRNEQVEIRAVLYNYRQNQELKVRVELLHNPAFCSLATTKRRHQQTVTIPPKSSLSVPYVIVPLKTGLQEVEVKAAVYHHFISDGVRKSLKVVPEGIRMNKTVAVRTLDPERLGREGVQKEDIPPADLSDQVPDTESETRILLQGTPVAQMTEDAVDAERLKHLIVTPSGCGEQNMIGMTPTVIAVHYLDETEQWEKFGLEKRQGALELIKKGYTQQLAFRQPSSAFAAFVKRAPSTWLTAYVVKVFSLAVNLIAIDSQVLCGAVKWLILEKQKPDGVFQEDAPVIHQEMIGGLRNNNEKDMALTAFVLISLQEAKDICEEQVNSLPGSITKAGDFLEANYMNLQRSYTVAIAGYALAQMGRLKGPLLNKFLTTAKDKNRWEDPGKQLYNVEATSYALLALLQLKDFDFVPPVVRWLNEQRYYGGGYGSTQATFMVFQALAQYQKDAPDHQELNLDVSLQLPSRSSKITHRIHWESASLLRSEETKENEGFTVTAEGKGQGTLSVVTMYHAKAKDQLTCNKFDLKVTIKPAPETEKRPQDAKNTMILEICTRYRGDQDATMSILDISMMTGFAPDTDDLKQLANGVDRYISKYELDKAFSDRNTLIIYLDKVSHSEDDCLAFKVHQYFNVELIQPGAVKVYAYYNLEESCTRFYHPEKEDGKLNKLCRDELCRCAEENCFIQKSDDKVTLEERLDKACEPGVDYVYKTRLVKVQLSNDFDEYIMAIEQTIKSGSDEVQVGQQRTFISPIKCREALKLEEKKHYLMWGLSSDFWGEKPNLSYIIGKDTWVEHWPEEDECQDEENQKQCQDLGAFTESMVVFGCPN
Chain of UniProt Q04760 (whole entry, looked up): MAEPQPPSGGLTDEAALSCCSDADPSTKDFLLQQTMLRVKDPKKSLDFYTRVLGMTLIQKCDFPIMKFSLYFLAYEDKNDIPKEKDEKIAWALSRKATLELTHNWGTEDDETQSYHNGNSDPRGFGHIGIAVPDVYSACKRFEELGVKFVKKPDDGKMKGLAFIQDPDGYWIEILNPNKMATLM
Chain of UniProt P14061 (whole entry, looked up): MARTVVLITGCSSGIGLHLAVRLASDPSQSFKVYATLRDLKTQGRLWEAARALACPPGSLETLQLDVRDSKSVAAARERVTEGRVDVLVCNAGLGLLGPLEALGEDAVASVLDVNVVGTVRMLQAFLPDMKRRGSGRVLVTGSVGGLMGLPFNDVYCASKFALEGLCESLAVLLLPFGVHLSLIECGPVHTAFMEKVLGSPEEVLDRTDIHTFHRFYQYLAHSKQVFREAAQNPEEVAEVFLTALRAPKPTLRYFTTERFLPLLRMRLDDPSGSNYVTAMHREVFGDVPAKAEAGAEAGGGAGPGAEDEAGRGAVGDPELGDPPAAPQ
Chain of UniProt P45984 (whole entry, looked up): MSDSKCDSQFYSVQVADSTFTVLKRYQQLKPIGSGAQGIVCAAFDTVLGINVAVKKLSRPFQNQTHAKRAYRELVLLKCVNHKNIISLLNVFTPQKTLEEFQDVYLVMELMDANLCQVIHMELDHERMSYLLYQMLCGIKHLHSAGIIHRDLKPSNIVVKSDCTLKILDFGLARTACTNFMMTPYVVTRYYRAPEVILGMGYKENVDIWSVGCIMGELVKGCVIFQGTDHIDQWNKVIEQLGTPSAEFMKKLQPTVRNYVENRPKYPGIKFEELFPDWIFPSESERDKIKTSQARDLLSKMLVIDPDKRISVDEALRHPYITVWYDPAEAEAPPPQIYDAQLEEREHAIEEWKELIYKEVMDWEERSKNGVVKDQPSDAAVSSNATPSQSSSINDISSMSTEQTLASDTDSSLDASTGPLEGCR
Chain of UniProt P49720 (whole entry, looked up): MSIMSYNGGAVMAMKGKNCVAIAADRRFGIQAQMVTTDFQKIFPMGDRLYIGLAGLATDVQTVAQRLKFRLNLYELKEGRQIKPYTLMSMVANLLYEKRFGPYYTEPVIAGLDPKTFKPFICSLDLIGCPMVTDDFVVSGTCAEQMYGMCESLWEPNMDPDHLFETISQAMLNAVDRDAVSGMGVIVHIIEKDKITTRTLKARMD
Chain of UniProt Q99436 (whole entry, looked up): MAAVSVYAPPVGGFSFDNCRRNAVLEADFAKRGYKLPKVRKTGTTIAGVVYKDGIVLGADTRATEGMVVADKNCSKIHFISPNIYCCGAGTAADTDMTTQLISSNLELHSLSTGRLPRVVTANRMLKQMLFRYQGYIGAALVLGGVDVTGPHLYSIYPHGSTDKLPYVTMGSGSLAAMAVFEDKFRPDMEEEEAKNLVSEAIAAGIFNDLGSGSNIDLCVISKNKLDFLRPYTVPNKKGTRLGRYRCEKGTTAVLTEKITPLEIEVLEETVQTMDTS

SMILES	target	assay	system	conditions	how to read	IC50
COc1cc(-c2nc3ccc(C(=O)NCCCN4CCN(c5cccc(C)c5C)CC4)cc3n2C2CCC2)cc(OC)c1OC	Activin receptor type-1-like (ACVRL1, Homo sapiens, UniProt P37023)	target engagement in cells, BRET				11600 nM
CC(C)(C)NCCCNC(=O)c1ccnc(C(F)(F)F)c1	TP53-binding protein 1 (Homo sapiens, UniProt Q12888)	methyl-lysine reader binding, inhibitor, AlphaScreen				> 100000 nM
CNC(=O)CCC12CCC(C)(C)C[C@H]1[C@H]1C(=O)C=C3[C@@]4(C)C=C(C#N)C(=O)C(C)(C)[C@@H]4CC[C@@]3(C)[C@]1(C)CC2 (some centres unmarked)	Kelch-like ECH-associated protein 1 (KEAP1, Homo sapiens, UniProt Q14145)	ligand displacement, TR-FRET				16 nM
CC(C)NCc1ccc(C[C@@H]2NC(=O)[C@@H](Cc3c[nH]c4ccccc34)NC(=O)[C@H](Cc3ccc(O)cc3)NC(=O)[C@H](NC(=O)[C@@H](N)Cc3ccc(Cl)cc3)CSSC[C@@H](C(=O)N[C@@H](Cc3ccc4ccccc4c3)C(N)=O)NC(=O)[C@H]([C@@H](C)O)NC2=O)cc1	Somatostatin receptor type 2 (SSTR2, Homo sapiens, UniProt P30874)	ligand displacement, radioligand		cell membranes		~350 nM and 240 nM and 665 nM
CC[C@H](C)[C@H](NC(C)=O)C(=O)N[C@H]1CSSC[C@@H](C(=O)N[C@@H](Cc2c[nH]c3ccccc23)C(N)=O)NC(=O)[C@H](CCCNC(=N)N)NC(=O)[C@H](Cc2c[nH]cn2)NC(=O)[C@H](C)NC(=O)CNC(=O)[C@H](Cc2c[nH]c3ccccc23)NC(=O)[C@H](CC(=O)O)NC(=O)[C@H](CCC(N)=O)NC(=O)[C@H](Cc2c[nH]c3ccccc23)NC(=O)[C@H](C(C)C)NC1=O	Complement C3 (Homo sapiens, UniProt P01024)	C3b formation, ELISA	normal human serum	added: LPS-coated plate		1080 nM
CCOc1ccc(S(=O)(=O)Nc2cc(CC(=O)N3CCOCC3)c(NS(=O)(=O)c3ccc(OCC)cc3)c3ccccc23)cc1	Kelch-like ECH-associated protein 1, Kelch domain (KEAP1, Homo sapiens, UniProt Q14145)	Keap1-Nrf2 interaction, inhibitor, fluorescence polarization				1380 ± 100 nM
COc1cc2ncnc(Nc3ccc(Oc4ccccc4)cc3C)c2cc1OC	Dual specificity mitogen-activated protein kinase kinase 1, phosphorylated (MAP2K1, Homo sapiens, UniProt Q02750)	ATP-biotin probe binding, inhibitor, probe-labelling competition		active MEK1		> 10000 nM
Cc1ccc(CNC(=O)C(CCc2ccccc2)NC(=O)C(NC(=O)Cc2cccc(Oc3ccccc3)c2)C(C)O)cc1 (centres unmarked)	Proteasome subunit beta type-3/PSMB7 (Homo sapiens, UniProt P49720+Q99436)	inhibitor				> 100000 nM
N#Cc1c(N)nc(N)nc1OCC1CCCCC1	Serine/threonine-protein kinase mTOR (MTOR, Homo sapiens, UniProt P42345)	kinase activity, inhibitor, TR-FRET		added: ATP 10 µM	up to highest concentration	> 20000 nM
NS(=O)(=O)c1ccc(/N=N/c2ccc(O)cc2)cc1	Lactoylglutathione lyase (GLO1, Homo sapiens, UniProt Q04760)	enzyme activity, inhibitor				3030 nM
Cc1cc(NC(=O)c2cccc(-n3cc(NC(=O)Nc4ccc(F)cc4)cn3)c2)ccn1	Mitogen-activated protein kinase 9 (MAPK9, Homo sapiens, UniProt P45984)	enzyme activity, inhibitor				133 nM
C[C@H](CCC(=O)N(C)CC(=O)O)[C@H]1CC[C@H]2[C@@H]3CC[C@@H]4C[C@H](O)CC[C@]4(C)[C@H]3C[C@H](O)[C@]12C	Serine hydroxymethyltransferase, mitochondrial (SHMT2, Homo sapiens, UniProt P34897)	serine to glycine conversion, inhibitor		pH 7.5, 1% DMSO, added: L-serine 1 mM, THF 0.2 mM		> 100000 nM
FC(F)(F)c1ccc2nc(NC3CCCc4ccccc43)[nH]c2c1 (centres unmarked)	Transient receptor potential cation channel subfamily M member 7 (Trpm7, Mus musculus, UniProt Q923J1)	inhibitor				1700 nM
C[C@]12CC[C@@H]3c4ccc(O)cc4CC[C@H]3[C@@H]1[C@H](OCCOC(=O)NC1CCCCC1)CC2=O	17-beta-hydroxysteroid dehydrogenase type 1 (HSD17B1, Homo sapiens, UniProt P14061)	enzyme activity, inhibitor, radiometric				380 nM

Excerpt of the above:
SMILES	target	assay	system	conditions	how to read	IC50
CC[C@H](C)[C@H](NC(C)=O)C(=O)N[C@H]1CSSC[C@@H](C(=O)N[C@@H](Cc2c[nH]c3ccccc23)C(N)=O)NC(=O)[C@H](CCCNC(=N)N)NC(=O)[C@H](Cc2c[nH]cn2)NC(=O)[C@H](C)NC(=O)CNC(=O)[C@H](Cc2c[nH]c3ccccc23)NC(=O)[C@H](CC(=O)O)NC(=O)[C@H](CCC(N)=O)NC(=O)[C@H](Cc2c[nH]c3ccccc23)NC(=O)[C@H](C(C)C)NC1=O	Complement C3 (Homo sapiens, UniProt P01024)	C3b formation, ELISA	normal human serum	added: LPS-coated plate		1080 nM
CCOc1ccc(S(=O)(=O)Nc2cc(CC(=O)N3CCOCC3)c(NS(=O)(=O)c3ccc(OCC)cc3)c3ccccc23)cc1	Kelch-like ECH-associated protein 1, Kelch domain (KEAP1, Homo sapiens, UniProt Q14145)	Keap1-Nrf2 interaction, inhibitor, fluorescence polarization				1380 ± 100 nM
